# Measurements collected from several papers.
# Compare with care: the assays were run in different laboratories. ± gives the spread as reported.
# ESR1: Estrogen receptor (ESR1, Homo sapiens, UniProt P03372)
# UniProt P03372, sequence (whole entry, looked up): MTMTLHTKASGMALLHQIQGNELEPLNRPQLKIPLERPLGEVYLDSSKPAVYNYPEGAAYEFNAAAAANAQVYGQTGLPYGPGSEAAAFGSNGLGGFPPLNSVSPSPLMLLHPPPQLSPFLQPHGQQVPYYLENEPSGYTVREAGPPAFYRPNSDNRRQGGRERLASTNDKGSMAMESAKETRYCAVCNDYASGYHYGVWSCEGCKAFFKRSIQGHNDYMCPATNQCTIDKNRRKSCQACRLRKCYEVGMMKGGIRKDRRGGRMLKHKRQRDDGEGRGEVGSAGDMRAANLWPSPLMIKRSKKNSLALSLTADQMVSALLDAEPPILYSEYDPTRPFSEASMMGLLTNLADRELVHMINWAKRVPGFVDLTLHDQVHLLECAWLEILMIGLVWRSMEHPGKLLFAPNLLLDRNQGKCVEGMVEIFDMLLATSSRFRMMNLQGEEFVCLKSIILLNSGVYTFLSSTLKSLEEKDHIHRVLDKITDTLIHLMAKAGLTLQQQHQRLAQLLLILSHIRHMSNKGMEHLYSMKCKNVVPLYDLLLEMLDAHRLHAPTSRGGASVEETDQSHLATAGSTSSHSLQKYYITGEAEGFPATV
SMILES,target,test,system,conditions,quantity,value
O=C1c2ccc(O)cc2-c2c(-c3ccc(O)cc3)oc3cc(O)cc1c23,ESR1,"binding, fluorescence polarization",,,Kd,3.1 µM
CC[C@H]([C@H](CC)c1ccc(O)cc1)[C@@H](C)c1ccc(O)cc1,ESR1,"reporter gene, agonist, 3xERE luciferase reporter",HEK293T,24 h,EC50,0.0038 nM
O=S(=O)(Oc1ccccc1Br)C1CC2OC1C(c1ccc(O)cc1)=C2c1ccc(O)cc1 (racemic),ESR1,"reporter gene, agonist, luciferase",,,EC50,44 nM
O=S(=O)([C@@H]1C[C@@H]2O[C@H]1C(c1ccc(O)cc1)=C2c1ccc(O)cc1)N(CC(F)(F)F)c1ccc(Cl)cc1,ESR1,"reporter gene, antagonist, luciferase",,,IC50,30 nM
CCCN1CC(COc2ccc(C3c4ccc(O)cc4CC4(CC4)N3C(=O)c3ccccc3)cc2)C1 (centres unmarked),"Estrogen receptor, with SRC3 (ESR1, Homo sapiens, UniProt P03372)",SRC3 coactivator recruitment,,"48 h, added: estradiol 1 nM",IC50,623 ± 8880 nM
Nc1cc(-c2cc(-c3ccccc3)c(C(F)(F)F)s2)n[nH]1,ESR1,"coactivator recruitment, antagonist",,,IC50,7450 nM
C[C@@H]1Cc2c([nH]c3ccccc23)[C@@H](c2c(F)cc(/C=C/C(=O)O)cc2F)N1C12CC(C1)C2,ESR1,cell-free assay,,,IC50,0.4 nM
Cc1ccccc1OS(=O)(=O)C1CC2OC1C(c1ccc(O)cc1)=C2c1ccc(O)cc1 (racemic),ESR1,"reporter gene, agonist, luciferase",,,EC50,220 nM
COc1ccc(SCC(=O)c2ccc(O)cc2O)cc1,ESR1,"coactivator recruitment, agonist",,,EC50,1310 nM
O=S(=O)(Oc1ccc(Br)cc1)C1CC2OC1C(c1ccc(O)cc1)=C2c1ccc(O)cc1 (racemic),ESR1,"reporter gene, agonist, luciferase",,,EC50,160 nM
N#CC(=Cc1ccc(O)cc1)c1ccc(Cl)cc1Cl,ESR1,"coactivator recruitment, agonist",,,EC50,64.7 nM

# For quick reference, copied from above:
SMILES,target,test,system,conditions,quantity,value
O=S(=O)([C@@H]1C[C@@H]2O[C@H]1C(c1ccc(O)cc1)=C2c1ccc(O)cc1)N(CC(F)(F)F)c1ccc(Cl)cc1,ESR1,"reporter gene, antagonist, luciferase",,,IC50,30 nM
